# Experimental data gathered from unrelated publications.
# Protocols differ between the studies behind these lines. Numbers after ± are the reported error.
Compound,assay,test system,conditions,scale,quantity,value
CCCC[C@H](NC(=O)CCCCCCCNC(=O)c1ccc(NN)nc1)C(=O)N[C@H]1CC(=O)NCCCC[C@@H](C(N)=O)NC(=O)[C@H](Cc2c[nH]c3ccccc23)NC(=O)[C@H](CCCNC(=N)N)NC(=O)[C@@H](Cc2ccccc2)NC(=O)[C@H](Cc2c[nH]cn2)NC1=O [technetium-99m labelled],,"C57 mouse, B16/F1 melanoma, kidneys","2 h, with: NDP-MSH 10 µg (6.07 nmol) co-injected",,tissue uptake,6.05 ± 1.13 %ID/g
CC(C)C[C@H](NC(=O)[C@@H]1CCCN1C(=O)[C@H](CCCCN)NC(=O)[C@@H](N)CO)C(=O)N1CCC[C@H]1C(=O)N[C@@H](CCC(=O)O)C(=O)N[C@H](C(=O)N[C@H](C(=O)N[C@@H](CC(=O)O)C(=O)N[C@@H](CCC(=O)O)C(=O)N[C@@H](Cc1ccc(O)cc1)C(=O)N[C@@H](Cc1cn(CCOCCOCCOCCNC(=O)CCc2ccc(O)c(CN(CCN(CC(=O)O)Cc3cc(CCC(=O)NCCCC[C@H](NC(=O)N[C@@H](CCC(=O)O)C(=O)O)C(=O)O)ccc3O)CC(=O)O)c2)nn1)C(=O)O)[C@@H](C)O)C(C)C [gallium-68 labelled],,"NMRI nu/nu mice, LNCaP tumour, liver","135.34 nmol/kg, low molar activity",,standardized uptake value,0.07 g/g
CCCC[C@H](NC(=O)CNC(=O)CNC(=O)c1ccc(NN)nc1)C(=O)N[C@H]1CC(=O)NCCCC[C@@H](C(N)=O)NC(=O)[C@H](Cc2c[nH]c3ccccc23)NC(=O)[C@H](CCCNC(=N)N)NC(=O)[C@@H](Cc2ccccc2)NC(=O)[C@H](Cc2c[nH]cn2)NC1=O [technetium-99m labelled],,"C57 mouse, B16/F1 melanoma-bearing","intravenous, 2 h",baseline: tumour over kidney,tissue uptake ratio,1.88
N=C(N)NCCC[C@@H]1NC(=O)[C@H](CCCCNC(=O)CC[C@H](NC(=O)CCOCCOCCOCCOCCNC(=O)CC[C@H](NC(=O)CN2CCN(CC(=O)O)CCN(CC(=O)O)CCN(CC(=O)O)CC2)C(=O)NCCOCCOCCOCCOCCC(=O)N[C@@H](CCC(=O)NCCCC[C@@H]2NC(=O)[C@@H](Cc3ccccc3)NC(=O)[C@H](CC(=O)O)NC(=O)CNC(=O)[C@H](CCCNC(=N)N)NC2=O)C(=O)NCCCC[C@@H]2NC(=O)[C@@H](Cc3ccccc3)NC(=O)[C@H](CC(=O)O)NC(=O)CNC(=O)[C@H](CCCNC(=N)N)NC2=O)C(=O)NCCCC[C@@H]2NC(=O)[C@@H](Cc3ccccc3)NC(=O)[C@H](CC(=O)O)NC(=O)CNC(=O)[C@H](CCCNC(=N)N)NC2=O)NC(=O)[C@@H](Cc2ccccc2)NC(=O)[C@H](CC(=O)O)NC(=O)CNC1=O [indium-111 labelled],,"female athymic nude mice, heart","intravenous, 3 µCi, 4 h, U-87 MG glioma xenograft",,tissue uptake,0.68 ± 0.31 %ID/g
C=Cc1c(C)c2cc3nc(c4c5[nH]c(cc6nc(cc1[nH]2)C(C)=C6CC)c(C)c5C(=O)C4)[C@@H](CCC(=O)NCC(=O)N1CCC[C@H]1C(=O)N[C@@H](CC(C)C)C(=O)NCC(=O)N[C@@H](Cc1ccccc1)C(=O)N[C@@H](CCCNC(=N)N)C(=O)N[C@H](C(=O)NCC(=O)N[C@@H](CCCCNC(=O)CCCN(C)c1ccc(/N=N/c2ccc4nc5ccc(N(CC)CC)cc5[n+](-c5ccccc5)c4c2)cc1)C(N)=O)C(C)C)[C@@H]3C,,"C57BL/6J mouse, DMM osteoarthritis model, knee articular cartilage","intra-articular, 6 h",,penetration depth,50 µm
N=C(N)NCCC[C@@H]1NC(=O)[C@H](CCCCNC(=O)CNC(=O)CNC(=O)CNC(=O)CC[C@H](NC(=O)CCOCCOCCOCCOCCNC(=O)CC[C@H](NC(=O)CN2CCN(CC(=O)O)CCN(CC(=O)O)CCN(CC(=O)O)CC2)C(=O)NCCOCCOCCOCCOCCC(=O)N[C@@H](CCC(=O)NCC(=O)NCC(=O)NCC(=O)NCCCC[C@@H]2NC(=O)[C@@H](Cc3ccccc3)NC(=O)[C@H](CC(=O)O)NC(=O)CNC(=O)[C@H](CCCNC(=N)N)NC2=O)C(=O)NCC(=O)NCC(=O)NCC(=O)NCCCC[C@@H]2NC(=O)[C@@H](Cc3ccccc3)NC(=O)[C@H](CC(=O)O)NC(=O)CNC(=O)[C@H](CCCNC(=N)N)NC2=O)C(=O)NCC(=O)NCC(=O)NCC(=O)NCCCC[C@@H]2NC(=O)[C@@H](Cc3ccccc3)NC(=O)[C@H](CC(=O)O)NC(=O)CNC(=O)[C@H](CCCNC(=N)N)NC2=O)NC(=O)[C@@H](Cc2ccccc2)NC(=O)[C@H](CC(=O)O)NC(=O)CNC1=O [indium-111 labelled],,"athymic nude mice, female, U-87 MG glioma xenograft, tumour and liver","intravenous, 4 h",baseline: tumour over liver,tumour to tissue ratio,4.79 ± 0.58
CCCCC/C=C\C/C=C\CCCCCCCC(=O)OC[C@H](NC(=O)[C@H](Cc1c[nH]c2ccccc12)NC(=O)[C@H](Cc1c[nH]cn1)NC(=O)[C@@H]1CCC(=O)N1)C(=O)N[C@@H](Cc1ccc(O)cc1)C(=O)N[C@H](CC(C)C)C(=O)N[C@@H](CC(C)C)C(=O)N[C@@H](CCCNC(=N)N)C(=O)N1CCC[C@H]1C(=O)NCC,HPLC,human plasma,"1 mg/mL, 37 °C, 50% degraded",,time to degradation,1280 min
CSCC[C@H](NC(=O)[C@H](CC(C)C)NC(=O)[C@H](Cc1c[nH]cn1)NC(=O)CNC(=O)[C@@H](NC(=O)[C@H](C)NC(=O)[C@H](Cc1c[nH]c2ccccc12)NC(=O)[C@H](CCC(N)=O)NC(=O)CCCCCNC(=O)CNC(=O)CNC(=O)CNC(=O)CSC(C)=O)C(C)C)C(N)=O [technetium-99m labelled],,"Swiss mouse, heart","intravenous, 18.5 MBq, 30 min",,tissue uptake,0.14 ± 0.05 %ID/g
N=C(N)NCCC[C@@H]1NC(=O)[C@H](CCCCNC(=O)CC[C@H](NC(=O)CCOCCOCCOCCOCCNC(=O)CN2CCN(CC(=O)O)CCN(CC(=O)O)CCN(CC(=O)O)CC2)C(=O)NCCCC[C@@H]2NC(=O)[C@@H](Cc3ccccc3)NC(=O)[C@H](CC(=O)O)NC(=O)CNC(=O)[C@H](CCCNC(=N)N)NC2=O)NC(=O)[C@@H](Cc2ccccc2)NC(=O)[C@H](CC(=O)O)NC(=O)CNC1=O [indium-111 labelled],,"female athymic nude mice, brain","intravenous, 3 µCi, 1 h, U-87 MG glioma xenograft",,tissue uptake,0.1 ± 0.02 %ID/g
N=C(N)NCCC[C@@H]1NC(=O)[C@H](CCCCNC(=O)CNC(=O)CNC(=O)CNC(=O)CC[C@H](NC(=O)c2ccc(NN=Cc3ccccc3S(=O)(=O)O)nc2)C(=O)NCC(=O)NCC(=O)NCC(=O)NCCCC[C@@H]2NC(=O)[C@@H](Cc3ccccc3)NC(=O)[C@H](CC(=O)O)NC(=O)CNC(=O)[C@H](CCCNC(=N)N)NC2=O)NC(=O)[C@@H](Cc2ccccc2)NC(=O)[C@H](CC(=O)O)NC(=O)CNC1=O [technetium-99m labelled],,"female athymic nu/nu mice, U-87 MG glioma, tumour","intravenous, dose not given, 120 min, tumour weight above 0.4 g",,tumour uptake,< 8 %ID/g
